Measured values of several laboratories.
Protocols differ between the studies behind these lines.
Method: steady-state kinetics
B1: asnB E349A (Escherichia coli, UniProt P22106); chain CSIFGVFDIKTDAVELRKKALELSRLMRHRGPDWSGIYASDNAILAHERLSIVDVNAGAQPLYNQQKTHVLAVNGEIYNHQALRAEYGDRYQFQTGSDCEVILALYQEKGPEFLDDLQGMFAFALYDSEKDAYLIGRDHLGIIPLYMGYDEHGQLYVASEMKALVPVCRTIKEFPAGSYLWSQDGEIRSYYHRDWFDYDAVKDNVTDKNELRQALEDSVKSHLMSDVPYGVLLSGGLDSSIISAITKKYAARRVEDQERSEAWWPQLHSFAVGLPGSPDLKAAQEVANHLGTVHHEIHFTVQEGLDAIRDVIYHIETYDVTTIRASTPMYLMSRKIKAMGIKMVLSGAGSDEVFGGYLYFHKAPNAKELHEETVRKLLALHMYDCARANKAMSAWGVEARVPFLDKKFLDVAMRINPQDKMCGNGKMEKHILRECFEAYLPASVAWRQKEQFSDGVGYSWIDTLKEVAAQQVSDQQLETARFRFPYNTPTSKEAYLYREIFEELFPLPSAAECVPGGPSVACSSAKAIEWDEAFKKMDDPSGRAVGVHQSAYK
B2: carbamoyl phosphate synthetase large subunit M911E (Escherichia coli, UniProt P00968); chain PKRTDIKSILILGAGPIVIGQACEFDYSGAQACKALREEGYRVILVNSNPATIMTDPEMADATYIEPIHWEVVRKIIEKERPDAVLPTMGGQTALNCALELERQGVLEEFGVTMIGATADAIDKAEDRRRFDVAMKKIGLETARSGIAHTMEEALAVAADVGFPCIIRPSFTMGGSGGGIAYNREEFEEICARGLDLSPTKELLIDESLIGWKEYEMEVVRDKNDNCIIVCSIENFDAMGIHTGDSITVAPAQTLTDKEYQIMRNASMAVLREIGVETGGSNVQFAVNPKNGRLIVIEMNPRVSRSSALASKATGFPIAKVAAKLAVGYTLDELMNDITGGRTPASFEPSIDYVVTKIPRFNFEKFAGANDRLTTQMKSVGEVMAIGRTQQESLQKALRGLEVGATGFDPKVSLDDPEALTKIRRELKDAGADRIWYIADAFRAGLSVDGVFNLTNIDRWFLVQIEELVRLEEKVAEVGITGLNADFLRQLKRKGFADARLAKLAGVREAEIRKLRDQYDLHPVYKRVDTCAAEFATDTAYMYSTYEEECEANPSTDREKIMVLGGGPNRIGQGIEFDYCCVHASLALREDGYETIMVNCNPETVSTDYDTSDRLYFEPVTLEDVLEIVRIEKPKGVIVQYGGQTPLKLARALEAAGVPVIGTSPDAIDRAEDRERFQHAVERLKLKQPANATVTAIEMAVEKAKEIGYPLVVRPSYVLGGRAMEIVYDEADLRRYFQTAVSVSNDAPVLLDHFLDDAVEVDVDAICDGEMVLIGGIMEHIEQAGVHSGDSACSLPAYTLSQEIQDVMRQQVQKLAFELQVRGLMNVQFAVKNNEVYLIEVNPRAARTVPFVSKATGVPLAKVAARVMAGKSLAEQGVTKEVIPPYYSVKEVVLPFNKFPGVDPLLGPEERSTGEVMGVGRTFAEAFAKAQLGSNSTMKKHGRALLSVREGDKERVVDLAAKLLKQGFELDATHGTAIVLGEAGINPRLVNKVHEGRPHIQDRIKNGEYTYIINTTSGRRAIEDSRVIRRSALQYKVHYDTTLNGGFATAMALNADATEKVISVQEMHAQIK
B3: BaiA1 (Clostridium scindens, UniProt P07914); chain MKLVQDKITIITGGTRGIGFAAAKLFIENGAKVSIFGETQEEVDTALAQLKELYPEEEVLGFAPDLTSRDAVMAAVGTVAQKYGRLDVMINNAGITMNSVFSRVSEEDFKNIMDINVNGVFNGAWSAYQCMKDAKQGVIINTASVTGIYGSLSGIGYPTSKAGVIGLTHGLGREIIRKNIRVVGVAPGVVDTDMTKGLPPEILEDYLKTLPMKRMLKPEEIANVYLFLASDLASGITATTISVDGAYRP
B4: protein (Crithidia fasciculata, UniProt Q9GTP5); chain MSLKGGTAAPAPMAPPRKWYDMTSAEFYVYVVAFMCGISIMMPINAVFSAPSYMLEYYLYATKDPFLVPKMTNFWTNVMTYYNLISMVTSLVVEPLTLLKSFRKIPMLVRLLGGLSVLIIEIIVLMVVPARGTTEAGAVATMCIAGFIGGLGTSIFESTVYGMFGAFPPSFTSIMMGGVGISGVLTSLIQIIVKAALPDTYEGVKKQSYIYYSLDVGIQAATFIALIMMRFNSFAQLHFGDLGGVKSKVDAGSLAGAGENVREPGAEATELEQYTEPAIGQIQEKNAEAHKDDPLAERELSEEESGDSRAVEAAGEAPTSNEILRATSVFSVLRSVKWMFVACGFNFLITLFLFPGIATGMFPESKWFATVAVFIFNCCDVLGRFSSAFRITWPRRYNQRWIIVAASFARVIFVPLLLLHSYHYIPSEAYGYVMQVVFGLSSGYIASMALVLGPQSKGIDNDGKRFVAGTLMGISILVGGTIGTVLSIMTQTIRETY
B5: enzyme (Trichoderma reesei, UniProt A0A024SMV2); chain MASGNPYTLKWGIMATGGIAETFCKDLLCNPAIRGADDVRHEIVAVASSSSSKRAEEFLQRIDGAFDAKTYGSYPELVADPNVDIVYVATPHSHHFQNTMLALEAGKNVLCEKAFTVTAAQARKLVETAKAKKLFLMEAVWTRYFPLSIKIRELIAAGEIGTVFRTIADLSINANSEQGQALKFADSHRMVNPDLAGGATLDLGVYPLTWVFQTLYHLQPEEDKEAPTVVASSNKYTTGADENTAIICSFPRHNSIGIASTTMRADTDPEKDTIPAVRIQGSKGEIQVFFPTYRPLKYKVVKTNGEAQTVDCPIPGDPARKGSGHGMFWEADECARCLRDGKLESATLPWKESIVIMETMEEALRQGGVTYPELITTDVYDPKSPLNTGNQ
B6: LYS12 D271N (Saccharomyces cerevisiae, UniProt P40495); chain SLTIGLIPGDGIGKEVIPAGKQVLENLNSKHGLSFNFIDLYAGFQTFQETGKALPDETVKVLKEQCQGALFGAVQSPTTKVEGYSSPIVALRREMGLFANVRPVKSVEGEKGKPIDMVIVRENTEDLYIKIEKTYIDKATGTRVADATKRISEIATRRIATIALDIALKRLQTRGQATLTVTHKSNVLSQSDGLFREICKEVYESNKDKYGQIKYNEQIVDSMVYRLFREPQCFDVIVAPNLYGDILSNGAAALVGSLGVVPSANVGPEIVIGEPCHGSAPDIAGKGIANPIATIRSTALMLEFLGHNEAAQDIYKAVDANLREGSIKTPDLGGKASTQQVVDDVLSRL
B7: enzyme H284A (Daphnia magna, UniProt A0A0A7CK57); chain MVDAAVAEKLEAGFQKLQEATNCKSLLKKHLTREIFDKIKDLKTSFGSTLLDVIQSGVENLDSGFGVYAPDAEAYSVFNDLFEPMICDYHTGFKPGDAHPPRDFGDLETFGNLDPEGAFIVSTRVRCGRSLAGYAFNPCLTEANYKEMEEKVVASLSSLEGELKGTYYPLTGMTKEVQTQLIQDRFLFKEGDRFLQAANACRYWPTGRGIYHNDAKTFLVWCNEEDHLRIISMQKGGDLKAVYARLVNAINEIEKRIPFSHHDKYGFLTFCPTNLGTTIRASVAIALPKLAADLAKLEEAAGKFNLQVRGTAGEHTEAEGGVYDISNKRRMGLTEYQAVKEMYDGLQELIRMEKEAA

B1 (asnB E349A)
Km (NC(=O)CC[C@H](N)C(=O)O; pH 8, 37 °C, 100 mM NaCl, glutaminase site, together with: MgCl2; no ATP): 5800 µM

B2
Km (Nc1ncnc2c1ncn2[C@@H]1O[C@H](COP(=O)(O)OP(=O)(O)OP(=O)(O)O)[C@@H](O)[C@H]1O; pH 7.6, KCl 100 mM, together with: glutamine 10 mM, ornithine 10 mM): 1000 µM

DAO1 (Trigonopsis variabilis, UniProt Q99042)
Km (CN(C)c1ccc2nc3ccc(N(C)C)c([N+](=O)[O-])c3[s+]c2c1; pH 8, 22 °C, apparent): 62 µM

protein (Clonorchis sinensis, UniProt H2KTV3)
Km (NCCc1ccc(O)c(O)c1; oocytes; pH 7.4, NaCl 96 mM, not purified): 0.454 µM

B3 (BaiA1)
Km (C[C@H](CCC(=O)SCCNC(=O)CCNC(=O)[C@H](O)C(C)(C)COP(=O)(O)OP(=O)(O)OC[C@H]1O[C@@H](n2cnc3c(N)ncnc32)[C@H](O)[C@@H]1OP(=O)(O)O)[C@H]1CC[C@H]2[C@@H]3[C@H](O)C[C@@H]4C[C@H](O)CC[C@]4(C)[C@H]3CC[C@]12C; pH 8.7, 37 °C, together with: NAD+): 53 µM

B4 (protein)
Km (Nc1ncnc2c1ncn2[C@@H]1O[C@H](CO)[C@@H](O)[C@H]1O; L. donovani; not purified): 59 µM

protein (Sinorhizobium meliloti, UniProt Q92WA3)
Km (O=c1ccn([C@@H]2O[C@H](COP(=O)(O)OP(=O)(O)O[C@H]3OC[C@@H](O)[C@H](O)[C@H]3O)[C@@H](O)[C@H]2O)c(=O)[nH]1; pH 7.6, 37 °C, together with: NAD+ 1 mM): 310 µM

B5 (enzyme)
Km (NC(=O)c1ccc[n+]([C@@H]2O[C@H](COP(=O)(O)OP(=O)(O)OC[C@H]3O[C@@H](n4cnc5c(N)ncnc54)[C@H](OP(=O)(O)O)[C@@H]3O)[C@@H](O)[C@H]2O)c1; pH 8.1, 30 °C, cofactor varied): 250 µM

enzyme (UniProt A0A7J5BGR1)
Km (COc1cc(CN)ccc1O; pH 8, 25 °C): 350 µM

B6 (LYS12 D271N)
Km (O=C(O)CC[C@H](C(=O)O)[C@@H](O)C(=O)O; pH 7.5, 25 °C, potassium acetate 100 mM, substrate as Mg complex, together with: NAD+ varied; Mg2+ 10 mM): 3.7 µM

KS (Arabidopsis thaliana, UniProt Q9SAK2)
Km (C=C1CC[C@@H]2C(C)(C)CCC[C@@]2(C)[C@@H]1CC/C(C)=C/COP(=O)(O)OP(=O)(O)O; pH 7.2, 30 °C, GGPP-derived substrate): 8 µM

B7 (enzyme H284A)
Km (N=C(N)NCCC[C@H](N)C(=O)O; pH 8.5): 900 µM

protein (Candidatus Protochlamydia amoebophila, UniProt A0A2P9HA01)
Km (Nc1ncnc2c1ncn2[C@@H]1O[C@H](COP(=O)(O)OP(=O)(O)OP(=O)(O)O)[C@@H](O)[C@H]1O; pH 7, 30 °C, transporter, labelled substrate, apparent, not purified): 360 µM

For quick reference, copied from above:
KS (Arabidopsis thaliana, UniProt Q9SAK2)
Km (C=C1CC[C@@H]2C(C)(C)CCC[C@@]2(C)[C@@H]1CC/C(C)=C/COP(=O)(O)OP(=O)(O)O; pH 7.2, 30 °C, GGPP-derived substrate): 8 µM

B1 (asnB E349A)
Km (NC(=O)CC[C@H](N)C(=O)O; pH 8, 37 °C, 100 mM NaCl, glutaminase site, together with: MgCl2; no ATP): 5800 µM
